Published values pooled from the literature.
Each line is one published result; not all experiments were run side by side. ± gives the spread as reported.
Magi2: Membrane-associated guanylate kinase, WW and PDZ domain-containing protein 2 (Magi2, Mus musculus, UniProt Q9WVQ1)
Sequence of UniProt Q99895 (whole entry, unmodified, looked up): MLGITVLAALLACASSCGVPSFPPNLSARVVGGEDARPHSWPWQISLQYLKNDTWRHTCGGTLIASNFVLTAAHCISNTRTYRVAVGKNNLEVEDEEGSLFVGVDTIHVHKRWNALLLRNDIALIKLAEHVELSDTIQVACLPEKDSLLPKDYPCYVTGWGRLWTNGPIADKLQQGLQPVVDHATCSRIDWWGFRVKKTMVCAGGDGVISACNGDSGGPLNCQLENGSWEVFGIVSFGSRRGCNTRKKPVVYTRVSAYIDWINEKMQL
Sequence of UniProt Q9WVQ1 (whole entry, looked up): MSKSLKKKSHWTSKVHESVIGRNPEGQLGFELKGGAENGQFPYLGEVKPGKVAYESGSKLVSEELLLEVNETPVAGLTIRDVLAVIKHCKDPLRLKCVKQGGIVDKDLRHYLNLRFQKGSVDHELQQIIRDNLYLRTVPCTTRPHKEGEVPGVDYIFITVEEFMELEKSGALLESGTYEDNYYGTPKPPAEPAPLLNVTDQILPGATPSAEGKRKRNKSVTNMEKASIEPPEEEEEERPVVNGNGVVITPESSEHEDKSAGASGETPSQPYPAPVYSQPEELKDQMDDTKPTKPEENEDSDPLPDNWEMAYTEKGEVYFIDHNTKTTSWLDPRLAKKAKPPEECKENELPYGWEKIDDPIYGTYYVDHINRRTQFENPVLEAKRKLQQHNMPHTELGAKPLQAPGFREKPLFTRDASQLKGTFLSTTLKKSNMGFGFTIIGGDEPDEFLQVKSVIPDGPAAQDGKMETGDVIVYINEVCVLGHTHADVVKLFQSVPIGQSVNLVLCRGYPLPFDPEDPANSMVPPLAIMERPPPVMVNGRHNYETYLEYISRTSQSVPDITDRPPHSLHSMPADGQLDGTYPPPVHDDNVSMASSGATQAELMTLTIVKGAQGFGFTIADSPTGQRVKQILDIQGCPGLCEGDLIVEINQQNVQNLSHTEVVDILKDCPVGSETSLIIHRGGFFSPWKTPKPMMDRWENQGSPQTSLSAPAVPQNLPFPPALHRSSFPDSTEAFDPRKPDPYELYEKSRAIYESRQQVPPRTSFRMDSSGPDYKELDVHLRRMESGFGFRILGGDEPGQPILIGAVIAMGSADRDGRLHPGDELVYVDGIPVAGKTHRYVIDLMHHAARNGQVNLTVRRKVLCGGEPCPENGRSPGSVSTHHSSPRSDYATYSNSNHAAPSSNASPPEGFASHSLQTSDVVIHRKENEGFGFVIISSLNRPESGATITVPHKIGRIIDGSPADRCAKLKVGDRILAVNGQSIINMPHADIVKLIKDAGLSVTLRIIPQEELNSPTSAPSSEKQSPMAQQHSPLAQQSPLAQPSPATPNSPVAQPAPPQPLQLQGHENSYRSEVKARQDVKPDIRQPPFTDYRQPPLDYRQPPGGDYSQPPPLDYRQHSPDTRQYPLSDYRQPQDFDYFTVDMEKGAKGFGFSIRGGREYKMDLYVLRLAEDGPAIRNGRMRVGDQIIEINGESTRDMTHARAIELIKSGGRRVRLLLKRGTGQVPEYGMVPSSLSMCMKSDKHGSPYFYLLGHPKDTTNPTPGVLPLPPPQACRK
Sequence of UniProt P62258 (whole entry, looked up): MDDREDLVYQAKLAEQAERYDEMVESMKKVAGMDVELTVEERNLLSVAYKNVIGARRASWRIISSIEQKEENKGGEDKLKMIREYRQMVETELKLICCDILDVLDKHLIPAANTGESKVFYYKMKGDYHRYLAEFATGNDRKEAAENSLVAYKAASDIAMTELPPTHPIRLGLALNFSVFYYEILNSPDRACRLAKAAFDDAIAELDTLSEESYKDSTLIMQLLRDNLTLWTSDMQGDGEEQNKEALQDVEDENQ
Sequence of UniProt O96017 (whole entry, looked up): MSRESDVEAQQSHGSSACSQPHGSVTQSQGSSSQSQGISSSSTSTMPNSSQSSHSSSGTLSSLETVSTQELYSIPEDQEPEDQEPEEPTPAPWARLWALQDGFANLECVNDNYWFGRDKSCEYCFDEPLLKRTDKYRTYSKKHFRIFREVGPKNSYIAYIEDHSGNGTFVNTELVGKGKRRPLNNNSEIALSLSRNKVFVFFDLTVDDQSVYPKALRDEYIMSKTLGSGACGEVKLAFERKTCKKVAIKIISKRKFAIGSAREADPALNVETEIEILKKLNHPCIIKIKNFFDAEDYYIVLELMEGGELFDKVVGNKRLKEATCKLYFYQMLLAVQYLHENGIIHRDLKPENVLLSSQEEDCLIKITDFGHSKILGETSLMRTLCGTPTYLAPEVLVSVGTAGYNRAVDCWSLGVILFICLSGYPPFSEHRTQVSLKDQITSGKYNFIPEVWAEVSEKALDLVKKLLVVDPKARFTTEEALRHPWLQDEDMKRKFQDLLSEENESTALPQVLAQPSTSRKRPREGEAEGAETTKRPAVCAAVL
Sequence of UniProt O75385 (whole entry, looked up): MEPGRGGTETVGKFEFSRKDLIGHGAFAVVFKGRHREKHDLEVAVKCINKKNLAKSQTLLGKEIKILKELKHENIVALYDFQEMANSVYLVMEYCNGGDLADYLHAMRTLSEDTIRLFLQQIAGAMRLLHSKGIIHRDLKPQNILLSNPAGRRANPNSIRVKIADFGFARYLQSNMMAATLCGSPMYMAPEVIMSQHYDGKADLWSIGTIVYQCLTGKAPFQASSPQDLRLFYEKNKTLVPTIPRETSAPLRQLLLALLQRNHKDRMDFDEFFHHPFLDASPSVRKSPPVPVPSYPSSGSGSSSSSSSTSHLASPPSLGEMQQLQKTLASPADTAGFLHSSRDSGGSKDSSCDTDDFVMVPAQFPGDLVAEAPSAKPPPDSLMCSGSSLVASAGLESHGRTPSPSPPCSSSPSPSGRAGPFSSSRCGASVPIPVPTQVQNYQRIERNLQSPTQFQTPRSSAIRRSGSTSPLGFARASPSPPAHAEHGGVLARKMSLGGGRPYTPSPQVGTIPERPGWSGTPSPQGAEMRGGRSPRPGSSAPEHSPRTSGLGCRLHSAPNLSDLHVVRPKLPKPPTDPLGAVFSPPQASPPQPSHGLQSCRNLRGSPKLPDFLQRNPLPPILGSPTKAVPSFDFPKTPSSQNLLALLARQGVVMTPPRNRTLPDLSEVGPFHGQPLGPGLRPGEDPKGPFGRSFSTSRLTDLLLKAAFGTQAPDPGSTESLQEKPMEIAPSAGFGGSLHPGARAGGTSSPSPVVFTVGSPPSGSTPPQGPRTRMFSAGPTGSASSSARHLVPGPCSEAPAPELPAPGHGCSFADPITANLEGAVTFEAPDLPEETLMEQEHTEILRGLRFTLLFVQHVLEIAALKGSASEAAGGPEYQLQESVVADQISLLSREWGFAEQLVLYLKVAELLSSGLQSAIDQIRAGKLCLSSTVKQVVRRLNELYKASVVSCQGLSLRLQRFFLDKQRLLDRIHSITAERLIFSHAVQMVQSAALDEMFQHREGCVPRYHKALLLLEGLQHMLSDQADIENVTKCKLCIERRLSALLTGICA
Sequence of UniProt Q9NYY3 (whole entry, looked up): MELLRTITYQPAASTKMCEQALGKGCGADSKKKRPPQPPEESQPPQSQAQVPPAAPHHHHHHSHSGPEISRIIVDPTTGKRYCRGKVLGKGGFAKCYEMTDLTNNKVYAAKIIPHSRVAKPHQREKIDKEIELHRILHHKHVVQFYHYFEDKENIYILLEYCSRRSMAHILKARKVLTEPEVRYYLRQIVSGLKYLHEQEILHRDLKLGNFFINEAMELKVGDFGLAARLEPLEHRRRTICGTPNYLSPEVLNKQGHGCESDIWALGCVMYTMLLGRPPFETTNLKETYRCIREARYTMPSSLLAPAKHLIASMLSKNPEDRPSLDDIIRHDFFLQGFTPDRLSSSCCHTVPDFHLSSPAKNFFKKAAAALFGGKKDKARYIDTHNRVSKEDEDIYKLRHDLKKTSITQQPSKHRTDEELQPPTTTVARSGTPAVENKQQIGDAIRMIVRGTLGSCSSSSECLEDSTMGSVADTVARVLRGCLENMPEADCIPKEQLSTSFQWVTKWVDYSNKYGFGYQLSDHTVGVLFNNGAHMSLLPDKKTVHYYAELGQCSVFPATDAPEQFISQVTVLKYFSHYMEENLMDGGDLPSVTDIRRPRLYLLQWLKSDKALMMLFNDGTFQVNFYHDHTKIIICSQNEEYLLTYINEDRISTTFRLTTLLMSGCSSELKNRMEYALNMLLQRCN
Sequence of UniProt Q01959 (whole entry, unmodified, looked up): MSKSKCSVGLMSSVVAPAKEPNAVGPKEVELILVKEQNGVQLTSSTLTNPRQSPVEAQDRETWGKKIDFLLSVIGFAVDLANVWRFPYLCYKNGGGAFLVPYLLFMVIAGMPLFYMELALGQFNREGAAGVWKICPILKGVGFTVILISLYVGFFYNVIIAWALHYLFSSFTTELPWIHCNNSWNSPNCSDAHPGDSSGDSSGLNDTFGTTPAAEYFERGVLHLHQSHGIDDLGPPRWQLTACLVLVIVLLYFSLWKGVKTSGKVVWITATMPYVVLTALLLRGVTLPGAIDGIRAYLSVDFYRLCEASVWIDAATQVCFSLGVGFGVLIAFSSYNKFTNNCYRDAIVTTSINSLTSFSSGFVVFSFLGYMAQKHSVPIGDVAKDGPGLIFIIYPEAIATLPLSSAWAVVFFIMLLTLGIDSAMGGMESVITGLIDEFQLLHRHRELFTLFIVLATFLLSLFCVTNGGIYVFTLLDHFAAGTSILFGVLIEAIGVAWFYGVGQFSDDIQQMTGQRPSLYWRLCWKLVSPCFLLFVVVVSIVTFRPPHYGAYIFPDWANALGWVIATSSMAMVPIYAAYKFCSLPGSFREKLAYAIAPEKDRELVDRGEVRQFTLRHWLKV
Sequence of UniProt Q04917 (whole entry, looked up): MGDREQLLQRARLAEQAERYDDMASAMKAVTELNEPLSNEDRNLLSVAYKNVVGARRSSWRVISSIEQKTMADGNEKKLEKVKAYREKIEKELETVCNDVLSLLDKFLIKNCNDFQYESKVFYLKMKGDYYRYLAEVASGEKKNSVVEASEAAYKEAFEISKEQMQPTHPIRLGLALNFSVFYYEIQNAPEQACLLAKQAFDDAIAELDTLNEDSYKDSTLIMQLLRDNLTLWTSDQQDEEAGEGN

SMILES | tested on | assay | system | conditions | scale | quantity | result
C#CC[C@H](NC(=O)CNC(=O)[C@H](CO)NC(=O)[C@@H]1CCCCNC(=O)CCCC(=O)N[C@@H](CCSC)C(=O)N[C@@H](Cc2c[nH]c3ccccc23)C(=O)N2CCC[C@H]2C(=O)N[C@@H](Cc2c[nH]cn2)C(=O)N[C@@H](CCCNC(=N)N)C(=O)N[C@@H](C(C)C)C(=O)N[C@@H]([C@@H](C)O)C(=O)N[C@@H](C)C(=O)N(C)[C@@H](C)C(=O)N1)C(=O)O | Microtubule-associated protein 1 light chain 3 alpha (Homo sapiens, UniProt Q9H492) | fluorescence polarization | – | with: fluorescein-labelled peptide | – | Kd | 116 ± 14 nM
CN(C)[C@H]1C[C@@]23CC[C@@]4(O2)C(=CC[C@]2(C)[C@@H](c5ccc6ccncc6c5)CC[C@H]24)C=C3[C@@H](O)[C@@H]1O | Serine/threonine-protein kinase ULK1 (ULK1, Homo sapiens, UniProt O75385) | ATP probe labelling, inhibitor, KiNativ profiling | – | 0.1 µM | – | inhibition | 4.9%
CC(=O)N[C@@H](CCCNC(=N)N)C(=O)N[C@H](C(=O)N[C@@H](CCCCN)C(=O)N[C@@H](CO)C(=O)N[C@@H](CCCNC(=N)N)C(=O)N[C@H](C(=O)N[C@@H](Cc1c[nH]c2ccccc12)C(=O)N[C@@H](C)C(=O)N[C@@H](Cc1c[nH]c2ccccc12)C(N)=O)[C@@H](C)OP(=O)(O)O)[C@@H](C)O | 14-3-3 protein epsilon (Homo sapiens, UniProt P62258) | binding, SPR | – | pH 7.4 | – | Kd | 76.2 nM
CC(=O)NCC(=O)N[C@@H](Cc1ccc(O)cc1)C(=O)NCC(=O)N[C@@H](CO)C(=O)N[C@@H](CO)C(=O)N[C@@H](CO)C(=O)N[C@@H](CCCNC(=N)N)C(=O)N[C@@H](CCCNC(=N)N)C(=O)N[C@@H](C)C(=O)N1CCC[C@H]1C(=O)N[C@@H](CCC(N)=O)C(=O)N[C@H](C(=O)O)[C@@H](C)O | Insulin-like growth factor 1 receptor (IGF1R, Homo sapiens, UniProt P08069) | binding, MST | – | – | – | Kd | 296 nM
CS(C)(=O)=Nc1ccc(-c2ccc(-c3nc4cc(O[C@@H]5CO[C@H]6[C@@H]5OC[C@H]6O)[nH]c4cc3F)cc2)cc1 | Tyrosine-protein kinase ABL1 (ABL1, Homo sapiens, UniProt P00519, Q252H) | enzyme activity, inhibitor | – | 10 µM | – | inhibition | -13%
CSCC[C@H](NC(=O)CNC(=O)[C@H](CCCNC(=N)N)NC(=O)[C@H](C)NC(=O)[C@@H](NC(=O)[C@H](CCC(N)=O)NC(=O)[C@H](Cc1ccc(OP(=O)(O)O)cc1)NC(=O)[C@H](C)NC(=O)[C@H](CS)NC(=O)[C@H](CO)NC(=O)[C@@H](NC(=O)[C@H](CC(C)C)NC(=O)[C@H](CC(=O)O)NC(=O)[C@H](CCCCN)NC(=O)[C@H](CO)NC(=O)[C@H](CO)NC(=O)c1ccc2c(c1)C(=O)OC21c2ccc(N(C)C)cc2Oc2cc(N(C)C)ccc21)C(C)C)C(C)C)C(=O)N[C@@H](CCC(=O)O)C(=O)N[C@@H](CC(=O)O)C(=O)O | Tyrosine-protein kinase Tec, SH2 domain (TEC, Homo sapiens, UniProt P42680) | binding | – | – | – | Kd | 354 nM
CC(C)[C@H]1NC(=O)C[C@H]2/C=C/CCSSC[C@@H](NC1=O)C(=O)N[C@H](Cc1cccc3ccccc13)C(=O)NCC(=O)O2 | Serine/threonine-protein kinase Chk2 (CHEK2, Homo sapiens, UniProt O96017) | enzyme activity, inhibitor | – | 10 µM | – | inhibition | -4.7%
CCC[C@@H](C(=O)c1ccccc1)N1CCCC1 | Sodium-dependent dopamine transporter (SLC6A3, Homo sapiens, UniProt Q01959) | dopamine uptake, inhibitor | HEK293 transiently transfected | DAT F76Y mutant, with: [3H]dopamine | – | Ki | 9 nM
O=C(N[C@@H]1c2ccccc2C[C@H]1N1CCCC1)c1ccc(-c2ccnc3[nH]ccc23)nc1 | Dual specificity mitogen-activated protein kinase kinase 4 (MAP2K4, Homo sapiens, UniProt P45985) | binding, competition with immobilised ligand | – | – | – | Kd | 2700 nM
COc1ccccc1-c1n[nH]c2nc(NC3CCN(C(=O)Cc4ccc(F)cc4F)CC3)ncc12 | – | bead binding, competition bead pull-down, refers to: LMJF.27.1300 | Leishmania donovani axenic amastigote extract | 10 µM | reference: vehicle | relative abundance | 0.87
CC(C)C[C@H](NC(=O)[C@H](CO)NC(=O)[C@@H]1CCCN1C(=O)[C@H](CCC(N)=O)NC(=O)[C@@H](NC(=O)[C@H](C)NC(=O)[C@H](CCCCN)NC(=O)[C@H](CC(C)C)NC(=O)[C@H](Cc1ccc(O)cc1)NC(=O)[C@H](COP(=O)(O)O)NC(=O)[C@H](CCC(=O)O)NC(=O)[C@H](CC(N)=O)NC(=O)[C@H](CCCNC(=N)N)NC(=O)[C@H](C)NC(=O)[C@H](C)N)[C@@H](C)O)C(=O)O | Magi2 | ITC | – | pH 8.0, 25 °C, with: tandem peptide | – | Kd | 60 ± 10 nM
CC(C)C[C@H](NC(=O)[C@@H]1CCCN1C(=O)CCOCCOCCOCCOCCOCCOCCOCCOCCNC(=S)Nc1ccc2c(c1)C(=O)OC21c2ccc(O)cc2Oc2cc(O)ccc21)C(=O)N[C@@H](Cc1cncn1CCCCCCCCc1ccccc1)C(=O)N[C@@H](C)C(=O)N[C@H](C(N)=O)[C@@H](C)CP(=O)(O)O | Serine/threonine-protein kinase PLK2, polo-box (PLK2, Homo sapiens, UniProt Q9NYY3) | binding, FP | – | – | – | Kd | > 2560 nM
CC[C@@H](C)[C@@H](NC(=O)[C@@H](CCC(N)=O)NC(=O)[C@H](NC(=O)[C@H]1CCCN1C(=O)[C@H](NC(=O)[C@@H](CO)NC(=O)[C@@H](Cc1ccccc1)NC(=O)[C@H]1CCCN1C(=O)[C@@H](CCC(N)=O)NC(=O)[C@H](N)CCSC)[C@H](C)CC)C(C)C)C(=O)N[C@@H](C(=O)N[C@H](CC(C)C)C(=O)N[C@H](CCC(N)=O)C(=O)NCC(=O)N[C@H](CO)C(=O)N[C@H](CCCNC(=N)N)C(=O)N[C@H](CCCNC(=N)N)C(=O)N[C@H](CCCNC(=N)N)C(=O)N[C@H](CCC(N)=O)C(=O)NCC(=O)N[C@H](CCCNC(=N)N)C(N)=O)[C@H](C)O | Kcnma1 (Mus musculus, UniProt Q08460) | ion current, blocker, inside-out patch clamp | Xenopus oocytes | +100 mV, with: 10 µM cytosolic Ca2+ | – | Kd | 3100 nM
CSCC[C@@H]1NC(=O)[C@H](CC(C)C)NC(=O)[C@H]([C@@H](C)O)NC(=O)[C@@H]2CSSC[C@@H]3NC(=O)[C@H]([C@@H](C)O)NC(=O)[C@H](CC(N)=O)NC(=O)[C@H](CSSC[C@@H](C(=O)N[C@@H](CC(=O)O)C(=O)N[C@@H](CCC(N)=O)C(=O)O)NC(=O)[C@H](CC(C)C)NC1=O)NC(=O)[C@H](CCCCN)NC(=O)[C@H](CC(=O)O)NC(=O)[C@H](CCCCN)NC(=O)[C@H](Cc1ccccc1)NC(=O)[C@H]([C@@H](C)O)NC(=O)[C@H]([C@@H](C)O)NC(=O)CNC(=O)[C@@H]1CCCN1C(=O)[C@H](CCC(=O)O)NC(=O)[C@@H](NC(=O)[C@@H](NC(=O)[C@@H](NC(=O)[C@H](CCC(=O)O)NC(=O)[C@H](CO)NC(=O)CN)C(C)C)[C@@H](C)O)CSSC[C@H](NC(=O)[C@H](CCCNC(=N)N)NC3=O)C(=O)NCC(=O)N[C@@H](CO)C(=O)N[C@@H](CC(=O)O)C(=O)NCC(=O)N[C@@H](CCCCN)C(=O)N[C@@H](CO)C(=O)N[C@@H](C)C(=O)N[C@@H](Cc1ccc(O)cc1)C(=O)N2 | Chymotrypsin-C (Homo sapiens, UniProt Q99895) | cell-free assay, FP | – | pH 8 | – | Kd | 0.2 nM
Cc1n[nH]c(C)c1CCCOc1cc(OCCCCCCNCCOCCOCCn2cc(CNc3ccc(C(=O)O)cc3)nn2)cc(C(=O)O)c1 | Transthyretin (TTR, Homo sapiens, UniProt P02766) | fluorescence polarization displacement | – | – | – | Kd | 213 nM
CC(C)C[C@H](NC(=O)[C@H](CO)NC(=O)[C@@H]1CCCN1C(=O)[C@H](CCC(N)=O)NC(=O)[C@@H](NC(=O)[C@H](C)NC(=O)[C@H](CCCCN)NC(=O)[C@H](Cc1c[nH]cn1)NC(=O)[C@H](Cc1ccc(O)cc1)NC(=O)[C@H](COP(=O)(O)O)NC(=O)[C@H](CCC(=O)O)NC(=O)[C@H](CCCNC(=N)N)NC(=O)[C@H](CCCNC(=N)N)NC(=O)[C@H](C)NC(=O)[C@H](C)N)[C@@H](C)O)C(=O)O | Magi2 | ITC | – | pH 8.0, 25 °C, with: tandem peptide | – | Kd | 270 ± 70 nM
O=C1NC2(CC2)COc2ncc(F)cc2[C@H]2COCCN2c2ccn3ncc1c3n2 | – | – | Sprague-Dawley rat, female, thymus | oral, 5 mg/kg/day, 4 weeks dosing, end of recovery | – | organ-to-body weight ratio | 0.136 ± 0.029%
CC(C)C[C@@H]1NC(=O)CNC(=O)[C@@H]2CSSC[C@@H]3NC(=O)[C@H]([C@@H](C)O)NC(=O)[C@H](CC(N)=O)NC(=O)[C@H](CSSC[C@@H](C(=O)N[C@@H](Cc4ccc(O)cc4)C(=O)N[C@@H](CCC(N)=O)C(=O)O)NC(=O)[C@H](CC(C)C)NC(=O)[C@H](C)NC1=O)NC(=O)[C@H](CCCCN)NC(=O)[C@H](CC(=O)O)NC(=O)[C@H](CCCCN)NC(=O)[C@H](Cc1ccccc1)NC(=O)[C@H]([C@@H](C)O)NC(=O)[C@H]([C@@H](C)O)NC(=O)CNC(=O)[C@@H]1CCCN1C(=O)[C@H](CCC(=O)O)NC(=O)[C@@H](NC(=O)[C@@H](NC(=O)[C@@H](NC(=O)[C@H](CCC(=O)O)NC(=O)[C@H](CO)NC(=O)CN)C(C)C)[C@@H](C)O)CSSC[C@H](NC(=O)[C@H](CCCNC(=N)N)NC3=O)C(=O)NCC(=O)N[C@@H](CO)C(=O)N[C@@H](CC(=O)O)C(=O)NCC(=O)N[C@@H](CCCCN)C(=O)N[C@@H](CO)C(=O)N[C@@H](C)C(=O)N[C@@H](Cc1ccc(O)cc1)C(=O)N2 | Chymotrypsin-C (Homo sapiens, UniProt Q99895, S216A) | competitive fluorescence polarization | – | 24 h, pH 8.0, with: FITC-labelled tracer | – | Kd | 1.84 ± 0.73 nM
C[C@H](NC(=O)[C@H](Cc1c[nH]c2ccccc12)NC(=O)[C@H](CO)NC(=O)[C@H](Cc1ccc(O)cc1)NC(=O)[C@@H](N)CC(=O)O)C(=O)N[C@@H](CCC(=O)O)C(=O)N[C@@H](CCC(=O)O)C(=O)N[C@@H](CCC(=O)O)C(=O)N[C@@H](CC(=O)O)C(=O)N[C@@H](CCC(=O)O)C(=O)O | Histone H2B 1.1/Histone H2A type 1 (Xenopus laevis, UniProt P02281+P06897) | binding, intrinsic tryptophan fluorescence | – | pH 7.6, 20 °C, with: H2A/H2B | – | Kd | 22600 ± 4400 nM
CC(C)C[C@H](NC(=O)[C@H](CCCNC(=N)N)NC(=O)[C@H](CC(C)C)NC(=O)[C@H](CO)NC(=S)Nc1ccc2c(c1)C(=O)OC21c2ccc(O)cc2Oc2cc(O)ccc21)C(=O)N[C@@H](CCCCN)C(=O)N[C@@H](CS)C(=O)NCC(=O)N[C@@H](CCP(=O)(O)O)C(=O)NCC(=O)N1CCC[C@H]1C(=O)N[C@H](C(=O)N[C@@H](Cc1c[nH]c2ccccc12)C(=O)N[C@@H](CC(C)C)C(=O)N[C@H](C(=O)N1CCC[C@H]1C(=O)N[C@@H](CCCNC(=N)N)C(=O)O)C(C)C)C(C)C | 14-3-3 protein eta (Homo sapiens, UniProt Q04917) | binding, fluorescence anisotropy | – | pH 7.5, FITC-labelled phosphopeptide titration | – | Kd | 28200 nM

Excerpt of the above:
SMILES | tested on | assay | system | conditions | scale | quantity | result
CS(C)(=O)=Nc1ccc(-c2ccc(-c3nc4cc(O[C@@H]5CO[C@H]6[C@@H]5OC[C@H]6O)[nH]c4cc3F)cc2)cc1 | Tyrosine-protein kinase ABL1 (ABL1, Homo sapiens, UniProt P00519, Q252H) | enzyme activity, inhibitor | – | 10 µM | – | inhibition | -13%
CC[C@@H](C)[C@@H](NC(=O)[C@@H](CCC(N)=O)NC(=O)[C@H](NC(=O)[C@H]1CCCN1C(=O)[C@H](NC(=O)[C@@H](CO)NC(=O)[C@@H](Cc1ccccc1)NC(=O)[C@H]1CCCN1C(=O)[C@@H](CCC(N)=O)NC(=O)[C@H](N)CCSC)[C@H](C)CC)C(C)C)C(=O)N[C@@H](C(=O)N[C@H](CC(C)C)C(=O)N[C@H](CCC(N)=O)C(=O)NCC(=O)N[C@H](CO)C(=O)N[C@H](CCCNC(=N)N)C(=O)N[C@H](CCCNC(=N)N)C(=O)N[C@H](CCCNC(=N)N)C(=O)N[C@H](CCC(N)=O)C(=O)NCC(=O)N[C@H](CCCNC(=N)N)C(N)=O)[C@H](C)O | Kcnma1 (Mus musculus, UniProt Q08460) | ion current, blocker, inside-out patch clamp | Xenopus oocytes | +100 mV, with: 10 µM cytosolic Ca2+ | – | Kd | 3100 nM
